Published values collected from several papers.
Numbered parts are unrelated; each lists some results of a single study.

Series 1
Target: Interferon regulatory factor 3, full length, phosphomimetic (IRF3, Homo sapiens, UniProt Q14653, residues 1-427, S386D/S396D/S398D/S402D/T404D/S405D)
UniProt Q14653, sequence (whole entry, unmodified, looked up): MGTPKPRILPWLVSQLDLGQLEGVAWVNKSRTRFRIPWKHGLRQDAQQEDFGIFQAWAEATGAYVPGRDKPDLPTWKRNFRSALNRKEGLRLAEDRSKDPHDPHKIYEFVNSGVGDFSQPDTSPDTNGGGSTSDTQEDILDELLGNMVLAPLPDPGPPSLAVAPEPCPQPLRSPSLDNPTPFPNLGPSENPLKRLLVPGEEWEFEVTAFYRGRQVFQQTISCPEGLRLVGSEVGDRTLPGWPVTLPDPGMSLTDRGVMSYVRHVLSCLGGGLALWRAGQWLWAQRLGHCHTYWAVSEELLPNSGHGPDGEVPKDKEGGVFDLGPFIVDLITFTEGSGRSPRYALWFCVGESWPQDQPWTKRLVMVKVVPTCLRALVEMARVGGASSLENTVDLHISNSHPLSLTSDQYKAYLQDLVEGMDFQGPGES
Technique: protein-binding microarray
Molecule type: double-stranded DNA, one strand shown
Sample: in vitro
Tested at: 2540 nM top
Notes: 60-bp whole probe
With: salmon DNA 0.4 mg/ml
Baseline: random background probes
Reading: higher = stronger binding
All sequences stand within: GCCTAGCAC … GTCTTGATTCGCTTGACGCTGCTG
Sequence	fitted relative affinity [z-score]
TTAGCTATCCTACTGCTTTAGTGCTAG	0.812
GACGTACTGGGGACTGGGGACGTGCTA	-0.577
GACGGACTGCTTCTCATGACGTGCTAG	-0.341
TTAGGTTTCGGTATCGATTAGTGCTAG	8.6
CAAACAGAGACCCGGCAAGTGTGCTAG	0.824
AACGGTCTCCTTTTCCTGACGTGCTAG	4.59
AAAATGATTTTTTTCATATAGTGCTAG	0.8
TTAGAACTGGGGTATCGGTTAGTGCTA	0.215
GATGGTTTCGGTTCCGGGACGTGCTAG	10.4
ATTGCTTTCTCTTTCATTGCGTGCTAG	3.99
AGGTTTCTATATTTGCTTCAGTGCTAG	3.23
GCCGGACTGGGACTGGGGACGTGCTAG	-0.567
TTAGGTCTTGGTCTCGGTTAGTGCTAG	-0.152
GTTTTACTTTCTATCTCTGTGTGCTAG	5.81
TTAGTTTTCAGTTTCGATTAGTGCTAG	6.16
TTAGAACTGAGTCTCGCTTAGTGCTAG	-0.538
TTAGGACTGGGGTATCGTTTAGTGCTA	-0.193
TTAGGTATCGGGTTTCGGTTAGTGCTA	3.95
TATTTTTACATTATTACCTCGTGCTAG	1.05

Series 2
Target: Prothrombin, mature alpha-thrombin (F2, Homo sapiens, UniProt P00734)
Technique: aptamer microarray, sandwich
Molecule type: DNA with 2'F-ANA
Sample: in vitro
Tested at: 200 nM
Notes: whole 15-mer aptamer, many near background
With: Cy3 exosite-II aptamer, 400 nM
Reading: higher = stronger binding
Sequence: GGTTGGTGTGGTTGG
Modification	mean fluorescence intensity [a.u.]
2'F-ANA at 1 3 7 10 14 15	57.9
2'F-ANA at 3 5 7 8 9 13 14	59.6
2'F-ANA at 1 2 3 6 7 8 9 10 11 12 13 14 15	57
2'F-ANA at 2 3 5 6 7 8 9 11 13 14 15	53.1
2'F-ANA at 2 4 5 6 7 9 10 11 12 13 14	53.5
2'F-ANA at 1 5 7 9 10 12 14	44.8
2'F-ANA at 1 3 4 10 11 14	92.9
2'F-ANA at 2 3 4 5 6 10 14 15	48.5
2'F-ANA at 5 7 8 9 10 13 14 15	45.8
2'F-ANA at 1 2 4 5 6 8 9 13	53.5
2'F-ANA at 2 4 6 7 9 12 13 14 15	106
2'F-ANA at 4 6 8 9 10 13 14 15	56
2'F-ANA at 3 4 11 13	635
2'F-ANA at 1 2 3 5 8 11 12 14 15	48.6
2'F-ANA at 2 3 5 7 11 13	79.1
2'F-ANA at 1 3 7 11 12 15	491
2'F-ANA at 1 2 4 5 9 11 12	121
2'F-ANA at 3 4 6 10	301
2'F-ANA at 1 2 4 6 10 14 15	47.8
2'F-ANA at 1 4 5 7 9 12 13 15	64.8
2'F-ANA at 1 2 4 6 9 12 15	296
2'F-ANA at 2 3 4 5 7 9 11 12 13 14	162
2'F-ANA at 3 4 5 8 9 10 11 13 14	48.2

Series 3
Target: RNA binding protein fox-1 homolog 2, RRM domain, GST-SBP tag (RBFOX2, Homo sapiens, UniProt O43251-10, residues 100-194)
Technique: RNA Bind-n-Seq
Molecule type: RNA
Sample: in vitro
Tested at: 365 nM
Notes: natural RNA segment, single round, ends assumed
Baseline: no-protein control
Reading: higher = stronger binding
All sequences stand within: GGGAGUUCUACAGUCCGACGAUC … UGGAAUUCUCGGGUGCCAA
Sequence	RBNS enrichment (R)
AUCUGCUGCCUUAGACCUGGGUGGGAUGUCUUGCUUAUUUGAAAUGUGUAGUGUUGAUUGACACAUUAAGACUAGCAGUCUUUAAUCCUGCCACUUUAUUGAGGUGUUAU	0.735
UGUUGCAAUUUCUGCUUCCACCUAUUUUCCAAGCAUUUUACUUAAGAAGGAUACUGUGUAGUUGAACUAAGGCUCUUUCCAGGCCGGGCUUGCAUCCUGUUGUGUAUUCU	0.82
CUGGCCAGGGGCCUGGUGUAGACACAGUAGAAGACAGUCAACUAUGGGCGCAUUCUGUCUGGAGCUCCCAGAAGGAGCUGUGUGCUGCUGGAGAGGAGGCUAAUUGUUGG	0.698
CAGUCUGUAAGCAGGAGUCAUUGCCAUGUUGCCCUCCCUGCUGGUGUUACUGUGUUCCCUUAGAGCAUGUGGGCCAGUGGGCCACAUUCAUAAUGCAGUUGCCCAAGGCC	2.84
GAAGGCAGAGAGCUCUGCCUAGGGAAUGCCUCCGCCAUAAGGGGCCACUGCUUGUGUCAAGGGAGGCAGGCAGAAGAGAUGAGUCCAUUCCUCAGGGACAGGUACCUGUA	0.799
GGCGAGGGGAGCCAUGCCAAGGGUCCAGGCUGCUUUAGGCCAUCUGUGCCCCACUCAUCUGGGGACAGAUGGUUUUUCUUUAUUGUAAAAUUGUGGACUUUUAAAACCUG	0.578
AUUGUUCUGAAAACUAAAGUUUAAAUCUUUAUGCUGUUGCUUGCUAGAUAUCCUGUUCUUUGGUAGAAAAUUCCCAUAGUCUGUACUCAAGAAGUGCCUAAAAAUGGAUU	1.12
CUAAUAAAAUUGCCCGUUUUGCAUUUGUACCCAGAGUAAUAUGUGCCAGAUACUUCAAUCUCAGAAUUACUAAGAAUCUGGCAGAAGUCCAGAGAAAAGAAAGUAUAAUU	1.61

Series 4
Target: RING finger protein unkempt homolog, zinc fingers 1-6, GST-SBP tag (UNK, Homo sapiens, UniProt Q9C0B0, residues 30-357)
UniProt Q9C0B0, sequence (30-357, looked up): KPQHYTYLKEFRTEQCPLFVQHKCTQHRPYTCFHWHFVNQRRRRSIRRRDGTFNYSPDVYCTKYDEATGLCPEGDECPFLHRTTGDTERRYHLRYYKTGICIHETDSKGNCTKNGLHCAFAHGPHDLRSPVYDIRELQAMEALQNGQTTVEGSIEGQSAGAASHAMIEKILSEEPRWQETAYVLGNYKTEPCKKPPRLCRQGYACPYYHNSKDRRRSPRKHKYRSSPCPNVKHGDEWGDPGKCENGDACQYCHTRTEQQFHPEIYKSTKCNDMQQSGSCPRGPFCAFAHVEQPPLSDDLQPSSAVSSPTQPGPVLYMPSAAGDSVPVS
Technique: RNA Bind-n-Seq
Molecule type: RNA
Sample: in vitro
Tested at: not given
Notes: RNA with constant flanks, human-mouse chimeric sites, ends assumed
Baseline: input RNA pool
Reading: higher = stronger binding
All sequences stand within: GGGAGUUCUACAGUCCGACGAUC … CAACAGAGGAUUGAGCAUCA
Sequence	bound/input enrichment [ratio]
GACUUUGGGACUGGUCCUCGCAACGCAGCCUUCUAUAGCCCUCAUGGACAUAUAUUAGUGCUGGCUGGAUUUGGAAAUCUGAGGGGACAAAUGGAAGUAUGGGAUGUUAAAAACUACAAG	0.416
CAACCUCAGAGCCCUGACUUCCUGGAUAUUACCAACCCUAAAGCGGUAUUAGAAAAUGCAUUGAGAAACUUCGCCUGUCUGACGACUGGAGAUGUGAUUGCUAUCAACUACAAUGAGAAG	0.408
GUGACUGGUGUUAAGAUUUCCCCUCAGCAAAGAAGUGCAGUAGUCACAAUAAUCCCUUCUGUGGUGAGUGCCAGUCAGAUUGUGGAGCUGGUUCCAGACCUCAGUUUAGACAUGGGAACU	0.237
CUCGGCACCGGCACGCUUUACAUCGCGGAGAGCCGCCUGUCCUGGUUAGAUGGUUCGGGAUUAGGAUUCUCACUGGAAUACCCCACCAUUAGUUUACAUGCAUUAUCCAGGGACCGAAAC	3.35
ACUCAGAGAUCCACCUCCCAAAGUGCUGGGAGUAAAGGUGUGGCCACCACACCUAACUUCAUAGACAUAUAUUUUUUUUAAUAUGAAUCUUCCUGUUCGUCCAGGGAGCAAGAACGGGUU	3.21
ACUCUUGACUCUUUCCAUUCUCGUCCCUUCCCUCUUGAUAUUCAAGGCCAUGAAUCCCAAAAUAACAGUCUUAGUGGCUAGCACCCAAACAGAGGUGGGUGCCAUCCACCCCAGUGUCUC	0.387
GUGACAGGUGUUAAGAUUUCCCCUCAGCAAAGAAGUGCAGUAGUCACCAUAAUUCCAUCUAUAGUGAGUGCCAGUCAGAUUGUGGAGCUGGUCCCAGACCUCAGUUUAGACAUGGGAACU	1.03
CGGAGCCCUCCUCUCCCACAGGCCCAAGAUAUAACCCACCAGUGCCUUUUGUCUUCCCGUUAGCUUUGUCAAUCACGCCUGUCCUCUCACGCCCACACUCCCCAGCCAAAGUGGGGAGGG	8.9

A few entries again (series 2):
Modification	mean fluorescence intensity [a.u.]
2'F-ANA at 2 4 6 7 9 12 13 14 15	106
2'F-ANA at 4 6 8 9 10 13 14 15	56
2'F-ANA at 3 4 11 13	635
2'F-ANA at 1 2 3 5 8 11 12 14 15	48.6
2'F-ANA at 2 3 5 7 11 13	79.1
2'F-ANA at 1 3 7 11 12 15	491
2'F-ANA at 1 2 4 5 9 11 12	121
2'F-ANA at 3 4 6 10	301
